Measurements of several laboratories.
Several values in a cell are separate wells, animals, samples, runs or records. Numbers after ± are the reported error.

| Structure (SMILES) | target or system | assay | system | setting | scale | measurement | value |
| --- | --- | --- | --- | --- | --- | --- | --- |
| Cc1ncsc1-c1ccc(C(C)NC(=O)C2CC(O)CN2C(=O)C(NC(=O)CCCCCCCCCCN2CCCC(Nc3ncc(Cl)c(Nc4ccccc4S(=O)(=O)C(C)C)n3)C2)C(C)(C)C)cc1 (centres unmarked) | 22Rv1 | RNA-seq, measured: MEAK7 mRNA |  | concentration not given | reference: DMSO | log2 fold change | -1.03 |
| CCN(CC)CC(=O)Nc1cccc(-n2cc(-c3ccc4ccc(-c5cn(-c6cccc(NC(=O)CN(CC)CC)c6)nn5)cc4c3)nn2)c1 | RCC4 | PCR angiogenesis array, measured: CXCL9 |  | 5 x IC50, 2 h, normoxia | reference: untreated | fold regulation | 1.17 |
| C=CC(=O)Nc1cccc(Cn2ncc3cnc(Nc4cnn(CCOC)c4)nc32)c1 | PIM1 human | binding, KINOMEscan |  | 100 nM | lower = stronger binding | percent of control | 100% |
| CC(C)c1ccc(N(C)c2ccc3c(c2)OCC[C@H]3CNc2cnccc2C(=O)O)cc1 | MDA-MB-415 | cell growth or viability, ATP luminescence |  | 7 days |  | IC50 | ≥ 10000 nM |
| CNS(=O)(=O)Nc1nccc(Cc2c(C)c3ccc(Oc4ncccc4F)cc3oc2=O)c1F | BDCM | cell viability, CellTiter-Glo |  | 7 days |  | IC50 | 89.7 nM |
| c1ccc(-c2n[nH]cc2-c2ccnc3ccccc23)nc1 | KIN3 (Candida albicans) | kinase binding, MIB/MS competition | Candida albicans lysate | 10 µM | reference: DMSO | log2 fold change | -0.08 |
| COC1OC(C)C(O)C(OC2OC(C)C(O)C(OC3OC(C)C(O)C(OC4OC(C)C(O)C(OC5OC(C)C(O)C(OC6OC(C)C(O)C(OC7OC(C)C(O)C(OS(=O)(=O)O)C7OS(=O)(=O)O)C6OS(=O)(=O)O)C5OS(=O)(=O)O)C4OS(=O)(=O)O)C3OS(=O)(=O)O)C2OS(=O)(=O)O)C1OS(=O)(=O)O (centres unmarked) |  |  | human plasma | 128 µg/mL |  | thrombin time | 11 ± 0.3 s |
| Cn1ncc2cc(-c3cncc(Cl)c3N3CCC4(CCNC4=O)CC3)ccc21 | LS174T | gene expression, microarray, measured: SLC40A1 mRNA |  | concentration not given, 4 h | reference: untreated cells | log2 fold change | -1.2 |
| COC1CN([C@H]2CC[C@H]([C@@]3(C)Oc4c(Cl)cc(C(=O)NCc5c(SC)cc(C)[nH]c5=O)c(C)c4O3)CC2)C1 |  | RNA-seq, measured: PDZD3 mouse homolog | mouse, HT-1376 xenograft, whole blood | dose not given | reference: vehicle | log2 fold change | 2.18 |
| COC1OC(C)C(O)C(OC2OC(C)C(O)C(OC3OC(C)C(O)C(OC4OC(C)C(O)C(OC5OC(C)C(O)C(OS(=O)(=O)O)C5OS(=O)(=O)O)C4OS(=O)(=O)O)C3OS(=O)(=O)O)C2OS(=O)(=O)O)C1OS(=O)(=O)O (centres unmarked) |  |  | human plasma | 128 µg/mL | reference: control | thrombin time prolongation | 1 fold |
| C=C(NC(=O)c1csc(-c2nc3c(cc2O)-c2nc(cs2)C(=O)NC(C(C)O)C(=O)NC(=C(C)OC)c2nc(cs2)C(=O)NC2c4nc(cs4)C(=O)NC(COC(=O)c4c5c6c(cccc6n4O)COC(=O)C(OC4CC(C)(O)C(N(C)C)C(C)O4)C2OC5)c2nc-3cs2)n1)C(N)=O (centres unmarked) | Streptococcus pneumoniae |  | -4, immunocompromised mice, lung infection | tid dosing |  | lung bacterial load at ED50 | 5.12 log CFU/g |
| COc1cc(O)ccc1CCC(c1ccc(O)cc1)c1cc2c(c(C)c1O)OC(c1ccc(O)cc1)CC2 (mixture of isomers) |  | measured: 17-HDHA | human whole blood | 3 µM, with: Escherichia coli |  | amount | 768 ± 214 pg/mL blood |
| CN1CCC[C@]1(C)/C=C/S(=O)(=O)NC(=O)Nc1c2c(cc3c1CCC3)CCC2 |  |  | human, whole blood ex vivo | 12.5 mg twice daily, day 14, 12 h, multiple ascending dose, with: LPS and ATP |  | IL-1β inhibition | 95.7% |
| COc1cc2c(NC3CCN(C(C)C)CC3)cc(N3CCOCC3)nc2cc1OCCCN1CCCC1 |  | TMT quantitative proteomics, measured: GMFB | 5xFAD mice, hippocampus | dose not given |  | normalised protein abundance | 0.0729 and 0.0238 and 0.0279 and 0.0329 and 0.0438 and -0.00652 and 0.0512 and 0.00905 |
| COC1OC(C)C(OS(=O)(=O)O)C(OC2OC(C)C(OS(=O)(=O)O)C(OC3OC(C)C(OS(=O)(=O)O)C(OC4OC(C)C(OS(=O)(=O)O)C(OC5OC(C)C(OS(=O)(=O)O)C(OC6OC(C)C(OS(=O)(=O)O)C(OC7OC(C)C(OS(=O)(=O)O)C(OC8OC(C)C(OS(=O)(=O)O)C(OC9OC(C)C(OS(=O)(=O)O)C(OC%10OC(C)C(OS(=O)(=O)O)C(OS(=O)(=O)O)C%10O)C9O)C8O)C7O)C6O)C5O)C4O)C3O)C2O)C1O (centres unmarked) |  |  | human plasma | 128 µg/mL |  | thrombin time | 9.2 s |
| Cc1cccc2c1N(C(=O)n1ccnn1)CC2 | Arabidopsis thaliana |  | max2-1 mutant, seedlings | 5 µM, with: (±)-GR24 1 µM |  | hypocotyl length | 8.93 mm |
| COC1OC(C)C(OS(=O)(=O)O)C(OC2OC(C)C(OS(=O)(=O)O)C(OC3OC(C)C(OS(=O)(=O)O)C(OC4OC(C)C(OS(=O)(=O)O)C(OC5OC(C)C(OS(=O)(=O)O)C(OC6OC(C)C(OS(=O)(=O)O)C(OC7OC(C)C(OS(=O)(=O)O)C(OC8OC(C)C(OS(=O)(=O)O)C(OS(=O)(=O)O)C8O)C7O)C6O)C5O)C4O)C3O)C2O)C1O (centres unmarked) |  |  | human plasma | 128 µg/mL |  | thrombin time | 10.1 ± 0.5 s |
| Nc1ncc(-c2cc(-c3cnn(CC(F)(F)F)c3)ncc2F)nc1C(=O)NC1CNCC(F)C1 (centres unmarked) | MAP4K4 | KINOMEscan |  | 1 µM | reference: DMSO control | remaining binding | 61% |
| Fc1ccc(Nc2nc(NC3CCCCC3)c3ccccc3n2)cc1F | β2AR/β1AR ECL2 chimera | β-arrestin2 recruitment, antagonist, BRET |  |  | reference: isoprenaline maximal response | maximal inhibition | -8.1% |
| COC1OC(C)C(OS(=O)(=O)O)C(OC2OC(C)C(OS(=O)(=O)O)C(OC3OC(C)C(OS(=O)(=O)O)C(OC4OC(C)C(OS(=O)(=O)O)C(OC5OC(C)C(OS(=O)(=O)O)C(OC6OC(C)C(OS(=O)(=O)O)C(OC7OC(C)C(OS(=O)(=O)O)C(OC8OC(C)C(OS(=O)(=O)O)C(OC9OC(C)C(OS(=O)(=O)O)C(OC%10OC(C)C(OS(=O)(=O)O)C(OC%11OC(C)C(OS(=O)(=O)O)C(OC%12OC(C)C(OS(=O)(=O)O)C(OS(=O)(=O)O)C%12O)C%11O)C%10O)C9O)C8O)C7O)C6O)C5O)C4O)C3O)C2O)C1O (centres unmarked) |  |  | human plasma | 128 µg/mL | reference: control | thrombin time prolongation | 0.9 fold |
| C=CC(=O)N1[C@@H](c2ccc3c(c2)OCO3)c2[nH]c3ccccc3c2C[C@H]1C(=O)N1CCN(C)CC1 | human cyclin E1 wild type-3xFLAG:CDK2 | co-IP with TMT proteomics, measured: SNRPD3 |  | concentration not given, P62318 | reference: wild type DMSO | relative co-enrichment | 100% |
| CN1CCCNC(=O)c2cccc(c2)C(=O)NCCCN(C)CCCNc2cccc3c2C(=O)c2cccc(c2C3=O)NCCC1 | SAS | RNA-Seq, measured: RELCH mRNA |  | 1 µM, 6 h | reference: untreated cells | log2 fold change | -1.55 |
| COc1ccccc1-c1ccncc1C(=O)Nc1nnc(OCc2ccc(Cl)cc2)s1 | DLD-1 BRCA2-/- |  |  | 0.06 µM, mean of replicates |  | colony count | 54.5 and 60 and 50 |
